Published values of several laboratories.
Each numbered part is a random draw from the data of one study; scales do not carry over between parts. Changes are numbered by the printed parent chain.

Set 1 — method: RNA Bind-n-Seq; molecule type: RNA; sample: in vitro; tested at: 1 µM; notes: whole 134-nt RNA, ends assumed; added: 150 mM KCl; reference: input library; reading: higher = stronger binding; quantity: log2 enrichment
Target: Ras GTPase-activating protein-binding protein 1, C-terminal RGG region (G3BP1, Homo sapiens, UniProt Q13283)
Chain of UniProt Q13283 (whole entry, looked up): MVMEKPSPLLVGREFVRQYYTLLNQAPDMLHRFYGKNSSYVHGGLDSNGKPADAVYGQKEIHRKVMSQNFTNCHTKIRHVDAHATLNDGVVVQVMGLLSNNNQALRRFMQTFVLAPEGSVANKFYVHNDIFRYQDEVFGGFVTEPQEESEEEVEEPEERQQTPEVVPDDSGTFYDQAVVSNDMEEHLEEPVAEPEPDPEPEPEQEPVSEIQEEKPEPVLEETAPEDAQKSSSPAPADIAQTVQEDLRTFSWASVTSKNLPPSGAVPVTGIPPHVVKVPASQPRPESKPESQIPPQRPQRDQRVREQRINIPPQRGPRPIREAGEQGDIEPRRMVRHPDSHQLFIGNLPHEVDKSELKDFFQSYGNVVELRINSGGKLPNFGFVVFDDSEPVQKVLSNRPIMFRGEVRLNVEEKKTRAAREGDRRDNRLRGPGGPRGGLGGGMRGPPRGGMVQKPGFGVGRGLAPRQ
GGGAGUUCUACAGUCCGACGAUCCUGUGCUACACAUCGUAUGUACCGAAUCGGUUUUUUUGGUUUUUUUGGGGUUUUUUUGGGGAAAGUAUUAUGUUACGCCGUUCGGAUCUGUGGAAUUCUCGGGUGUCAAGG: -1.31
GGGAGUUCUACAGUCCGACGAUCGUCCUGUGCUACACAUCGUAUGUACCGAAUCGGGCCCCCGGGCCCCCGGCCCCCGGGGAAAGUAUUAUGUUACGCCGUUCGGAUCUGCACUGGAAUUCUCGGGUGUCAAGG: -1.48
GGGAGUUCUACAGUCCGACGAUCAAGUCCUGUGCUACACAUCGUAUGUACCGAAUCGGGUUUUUGGGUGGGAAAAAGGGAAAGUAUUAUGUUACGCCGUUCGGAUCUGCACUUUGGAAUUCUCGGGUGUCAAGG: 0.697
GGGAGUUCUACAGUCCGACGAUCCUGUGCUACACAUCGUAUGUACCGAAUCGGGGAAAAAAGGGGAAAAAAGGGAAAAAAGGGGAAAGUAUUAUGUUACGCCGUUCGGAUCUGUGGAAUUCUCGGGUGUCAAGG: -1.06
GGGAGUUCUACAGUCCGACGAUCCUGUGCUACACAUCGUAUGUACCGAAUCAAAUUUUUUUAAACCCCCCCAAACCCCCCCAAAAAAGUAUUAUGUUACGCCGUUCGGAUCUGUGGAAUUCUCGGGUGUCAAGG: -1.17
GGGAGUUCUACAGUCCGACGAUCUCAAGUCCUGUGCUACACAUCGUAUGUACCGAAUCGGGUUUGGGUUUGGUUUGGAAAGUAUUAUGUUACGCCGUUCGGAUCUGCACUUCCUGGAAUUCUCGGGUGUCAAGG: -0.794
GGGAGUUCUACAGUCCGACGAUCUGGCCCUGGUGGCAUGCGGGGAGGAAGAGGUGGCCUCAUGGAUCGUGGUGGUCCCGGUGGAAUGUUCAGAGGUGGCCGUGGUGGAGACGGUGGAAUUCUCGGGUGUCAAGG: 3.05
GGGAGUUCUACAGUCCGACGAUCGUCCUGUGCUACACAUCGUAUGUACCGAAUCAAAUUUUUUUAAACCCCCAAAUUUAAAAAAGUAUUAUGUUACGCCGUUCGGAUCUGCACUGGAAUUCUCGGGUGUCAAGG: -0.812
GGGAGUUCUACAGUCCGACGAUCCCUCAAGUCCUGUGCUACACAUCGUAUGUACCGAAUCGGUUUUUGGUGGAGGAAAGUAUUAUGUUACGCCGUUCGGAUCUGCACUUCCAGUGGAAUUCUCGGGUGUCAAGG: -0.596

Set 2 — method: RNA Bind-n-Seq; molecule type: RNA; sample: in vitro; tested at: 90 pmol; notes: 4-mer, random 30-nt RNA, single round; reference: input library; reading: higher = stronger binding; quantity: 4-mer enrichment
Target: ATP-dependent RNA helicase DDX3X, helicase core (DDX3X, Homo sapiens, UniProt O00571, residues 132-607)
Chain of UniProt O00571 (132-607, looked up): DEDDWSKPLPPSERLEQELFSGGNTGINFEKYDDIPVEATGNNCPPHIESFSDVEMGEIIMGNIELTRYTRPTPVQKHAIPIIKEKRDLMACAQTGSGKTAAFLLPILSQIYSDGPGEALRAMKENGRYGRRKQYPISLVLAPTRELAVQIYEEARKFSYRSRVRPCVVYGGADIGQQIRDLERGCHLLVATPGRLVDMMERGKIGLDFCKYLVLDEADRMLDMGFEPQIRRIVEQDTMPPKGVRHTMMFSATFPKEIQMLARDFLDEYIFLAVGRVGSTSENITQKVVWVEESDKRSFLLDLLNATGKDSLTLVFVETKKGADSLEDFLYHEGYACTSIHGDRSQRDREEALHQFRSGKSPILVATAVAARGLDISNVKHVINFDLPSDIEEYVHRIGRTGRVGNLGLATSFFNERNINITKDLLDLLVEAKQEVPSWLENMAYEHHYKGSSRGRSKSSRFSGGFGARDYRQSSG
Added: 3 µM iPr-DMDA-PatA, 2 mM ADP, 2 mM phosphate
GGGA: 1.24 fold
UCAC: 1.06 fold
GGAG: 1.19 fold
AUUU: 1.19 fold
UCGG: 0.821 fold
AUGA: 1.25 fold
GUGC: 0.715 fold
GGUG: 0.862 fold
AGUU: 1.08 fold
ACAG: 1.07 fold
UUGC: 0.748 fold
CAGG: 0.908 fold
UCAA: 1.13 fold
GGUC: 0.777 fold
GAGC: 1.1 fold

Set 3 — target: CCND2, cyclin fold, Cln2 fusion (human); method: yeast growth competition, sequencing; sample: yeast; notes: weak parent motif; reference: not given; reading: higher = stronger binding; quantity: normalised enrichment score
Parent: CDC25A docking peptide (human); PPHRRRLLFACSP; partner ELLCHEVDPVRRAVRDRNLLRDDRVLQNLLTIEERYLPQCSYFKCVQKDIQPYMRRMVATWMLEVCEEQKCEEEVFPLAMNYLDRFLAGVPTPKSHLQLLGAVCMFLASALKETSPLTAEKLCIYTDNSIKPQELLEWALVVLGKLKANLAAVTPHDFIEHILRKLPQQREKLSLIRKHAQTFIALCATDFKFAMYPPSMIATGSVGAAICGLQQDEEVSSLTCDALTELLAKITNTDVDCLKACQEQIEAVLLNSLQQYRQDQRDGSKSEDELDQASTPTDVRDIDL
R6K: 0.292
P2K: 0.196
P13V: 0.168
H3T: 0.314
P13I: 0.208
P13W: -0.38
P13D: 0.638
P2M: 0.365
L7C: 0.194
R6D: 0.0764
H3A: 0.0194
R4G: 0.162
P2D: 0.11
R6P: -0.0894
F9Y: 0.145
P2W: 0.0857
L7V: 0.262
L8K: 0.241
C11G: -0.0264
S12A: 0.129

Set 4 — method: DHFR PCA, deep sequencing; sample: yeast; added: (+)-ABA 0 µM; reference: wild-type fitted maximum; reading: higher = stronger binding; quantity: relative binding score
Target: ABI1, truncated, D143A, DHFR fusion (Arabidopsis thaliana)
Notes: methotrexate growth selection, single substitutions
Parent: PYL1, truncated, DHFR fusion (Arabidopsis thaliana); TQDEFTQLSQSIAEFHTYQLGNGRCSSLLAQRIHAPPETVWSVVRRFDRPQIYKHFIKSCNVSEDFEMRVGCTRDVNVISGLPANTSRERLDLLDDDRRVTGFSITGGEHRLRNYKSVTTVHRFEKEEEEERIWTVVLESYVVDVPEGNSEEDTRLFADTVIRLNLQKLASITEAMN
R113S: 8.09%
S87M: 36.1%
R163L: 0.639%
R123D: 5.3%
I133R: 11.7%
L164R: 10.7%
I12N: 5.7%
K58G: 5.71%
F56T: -2.76%
V143E: -0.026%
W134M: 27%
A84F: 78.4%
A84Y: 85.4%
E129K: 19.1%

A few entries again (set 3):
R6P: -0.0894
F9Y: 0.145
P2W: 0.0857
L7V: 0.262
L8K: 0.241
C11G: -0.0264
